Measurements collected from several papers.
Every numbered part comes from another study and shows a few of its results, in no order. “And” joins repeats or separate records; there may be more than shown.

Sample 1
Target: Delta-type opioid receptor (OPRD1, Homo sapiens, UniProt P41143)
Sequence of UniProt P41143 (whole entry, looked up): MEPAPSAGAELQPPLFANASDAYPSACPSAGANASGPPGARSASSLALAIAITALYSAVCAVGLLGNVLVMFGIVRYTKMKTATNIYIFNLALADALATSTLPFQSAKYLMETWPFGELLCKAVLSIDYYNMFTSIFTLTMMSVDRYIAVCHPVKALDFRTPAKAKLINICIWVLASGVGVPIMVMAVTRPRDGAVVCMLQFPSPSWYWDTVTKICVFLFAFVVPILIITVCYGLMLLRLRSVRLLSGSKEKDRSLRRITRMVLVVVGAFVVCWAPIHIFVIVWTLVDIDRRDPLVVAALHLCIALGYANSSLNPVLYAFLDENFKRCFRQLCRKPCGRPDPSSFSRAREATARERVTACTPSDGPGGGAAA
Observed: binding
Method: radioligand binding
Tested at: 10 µM
Compound	inhibition [%]
CC1=C(C#N)C(c2ccc3c(c2)c(NC(=O)c2ccccc2C)nn3C)C(C#N)=C(C)N1	17.7
Nc1c(C(=O)NCc2ccc(C(=O)NCCCC3CCCCC3)cc2)cnn1-c1ccccc1	24.1
O=C(Nc1cccnn1)N1CC(CC=Cc2cncc(Oc3ccc(C(F)(F)F)cn3)n2)C1	-16.3
CCCOc1ccc([C@H]2[C@H](C(=O)O)[C@@H](c3ccc4c(c3)OCO4)CN2CC(=O)Nc2c(CC)cccc2CC)cc1	9.89
O=C1CCc2cc(Nc3cc(OC4CCOCC4)c([N+](=O)[O-])cc3Cl)ccc2N1	3.32
Cc1c(NC(=O)c2cc(C(N)=O)nc3cc(F)ccc23)c(C(F)(F)F)nn1Cc1ccc(C(C)(C)C)cc1	-9.45
CN1C(=O)[C@@H](N2CCc3cn(Cc4ccccc4)nc3C2=O)COc2ccccc21	28.8
Cc1nccc(COC(=O)N2C[C@@H]3[C@@H](CNC(=O)c4ccc5[nH]nnc5c4)[C@@H]3C2)n1	-1.41
COc1cc(-c2cn(C3CCc4ccccc4N(CC(F)(F)F)C3=O)nn2)ccc1-n1ccc(C)n1 (stereo not shown)	16.7
Cc1c(N2CCCC2)nc2ccc(Br)cc2c1C(=O)NC[C@H](CCC(=O)O)c1ccccc1Cl	15.4
Cc1c[nH]c2nccc(Oc3c(F)cc(Nc4cc(Cl)nc(N)n4)cc3F)c12	7.96
Cc1cc(C)c(-n2ccn3nc(-c4cccnc4)cc23)cc1NC(=O)c1cc(C#N)cc(S(F)(F)(F)(F)F)c1	18.7

Sample 2
SMILES: CC(C)S(=O)(=O)c1ccc2nccc(Nc3ccc4sc(C5CCCC5)nc4c3)c2c1.Cl
Method: CCK-8
cell line	setting	survival
L929 RIPK3-/- reexpressing RIPK3 K51A/R69H	25 µM	95% and 71.2% and 61.1% and 92.4% and 59.4%
L929 RIPK3-/- reexpressing RIPK3 K51A	3.125 µM	91.4% and 98.4% and 99% and 95.8% and 95.1%
L929 RIPK3-/- reexpressing RIPK3 K51A	6.25 µM	93.3% and 95% and 92.6% and 98.3%
L929 RIPK3-/- reexpressing RIPK3 K51A	50 µM, together with: zVAD	70.7% and 79.2% and 77.1% and 77.3%
L929 RIPK3-/- reexpressing RIPK3 K51A/R69H	50 µM, together with: zVAD	62.4% and 65.3% and 40.9%
L929 RIPK3-/- reexpressing RIPK3 K51A/R69H	50 µM	64.7% and 64.2% and 40.9% and 64%
L929 RIPK3-/- reexpressing RIPK3 K51A/R69H	3.125 µM	97.8% and 96.1% and 96.9% and 98.4% and 93.6%
L929 RIPK3-/- reexpressing RIPK3 K51A/R69H	12.5 µM	98.8% and 92.3% and 94.2% and 84.4%

Sample 3
Target: Diamine acetyltransferase 1 (Homo sapiens, UniProt P21673)
Mode: inhibitor
Tested at: 10 µM
Relative to: control
Target sequence (P21673 1-171): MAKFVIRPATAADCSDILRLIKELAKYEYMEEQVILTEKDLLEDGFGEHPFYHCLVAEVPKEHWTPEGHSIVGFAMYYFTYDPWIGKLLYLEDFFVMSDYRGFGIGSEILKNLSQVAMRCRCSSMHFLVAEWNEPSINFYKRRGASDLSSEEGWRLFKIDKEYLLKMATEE
Structure (SMILES)	remaining activity [%]
COc1cc2c3c(c1O)-c1ccccc1C[C@@H]3N(C)CC2	120
Oc1ccc(CCc2cc(O)cc(O)c2)cc1	102
O=C1C=CC(=O)c2c(O)cccc21	80.1
COP(=S)(OC)Oc1cc(Cl)c(Cl)cc1Cl	108
CCCCCCCCOC(=O)c1ccccc1C(=O)OCCCCCCCC	96.8
COc1ccc2c(c[n+](C)c3c4cc5c(cc4ccc23)OCO5)c1OC	100
COc1cc2occc2c2oc(=O)ccc12	85.9

Sample 4
Target: Calcium/calmodulin-dependent protein kinase type II subunit alpha (CAMK2A, Homo sapiens, UniProt Q9UQM7)
Sequence of UniProt Q9UQM7 (whole entry, looked up): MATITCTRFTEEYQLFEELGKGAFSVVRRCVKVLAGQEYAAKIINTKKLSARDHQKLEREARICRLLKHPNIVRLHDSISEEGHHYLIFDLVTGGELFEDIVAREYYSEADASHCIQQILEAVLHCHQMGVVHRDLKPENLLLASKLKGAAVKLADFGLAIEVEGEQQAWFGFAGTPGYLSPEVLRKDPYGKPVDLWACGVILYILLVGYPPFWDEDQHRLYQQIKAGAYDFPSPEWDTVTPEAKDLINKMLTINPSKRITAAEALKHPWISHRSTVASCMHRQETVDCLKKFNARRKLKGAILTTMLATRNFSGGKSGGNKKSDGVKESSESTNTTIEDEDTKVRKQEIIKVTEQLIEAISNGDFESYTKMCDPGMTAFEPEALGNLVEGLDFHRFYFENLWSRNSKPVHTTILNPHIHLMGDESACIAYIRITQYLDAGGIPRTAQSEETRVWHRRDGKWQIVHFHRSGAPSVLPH
Observed: enzyme activity
Mode: inhibitor
Tested at: 10 µM
SMILES	inhibition [%]
O=C(CNC(=O)c1ccc(C2=NOC(c3cc(Cl)cc(C(F)(F)F)c3)(C(F)(F)F)C2)c2ccccc12)NCC(F)(F)F (stereo not shown)	-7
COc1cc([C@@H]2c3cc4c(cc3C(=O)[C@H]3COC(=O)[C@H]23)OCO4)cc(OC)c1OC	-71
CN[C@@H]1C[C@H]2O[C@@](C)([C@@H]1OC)n1c3ccccc3c3c4c(c5c6ccccc6n2c5c31)C(=O)NC4	88
CC1=C[C@H]2[C@@]3(O)[C@H](C)[C@@H](O)[C@]4(O)[C@H]([C@@H]3C=C(CO)C[C@]2(O)C1=O)C4(C)C	-6

Repeated from above (sample 2):
cell line	setting	survival
L929 RIPK3-/- reexpressing RIPK3 K51A/R69H	50 µM, together with: zVAD	62.4% and 65.3% and 40.9%
L929 RIPK3-/- reexpressing RIPK3 K51A/R69H	50 µM	64.7% and 64.2% and 40.9% and 64%
L929 RIPK3-/- reexpressing RIPK3 K51A/R69H	12.5 µM	98.8% and 92.3% and 94.2% and 84.4%
L929 RIPK3-/- reexpressing RIPK3 K51A	6.25 µM	93.3% and 95% and 92.6% and 98.3%
L929 RIPK3-/- reexpressing RIPK3 K51A/R69H	25 µM	95% and 71.2% and 61.1% and 92.4% and 59.4%
